Measured values of several laboratories.
Lines come from different studies, so protocols differ. ± marks the error that the study gave.

Compound	tested on	test	system	conditions	endpoint	result
Cc1cc(C)c(N2CCN(c3c(C)cc(C)cc3C)C2=[Se])c(C)c1.[Cl][Au]	LoVo	cell growth or viability, MTT		72 h	IC50	1.6 µM
O=C1CC2(C1)C(=O)[O][Pt]1([Cl])([O]C(=O)C(Cl)Cl)([NH][C@@H]3CCCC[C@H]3[NH]1)[O]C2=O	HUVEC	cell growth or viability, MTT			IC50	56.5 µM
COc1c(Oc2c(O)c(OC)c(OC)c3c2ccc2cc(O)ccc23)cc2c(c1OC)-c1ccc(O)cc1CC2	human Fibroblast	cell growth or viability, CCK-8		24 h	IC50	35 µM
CCN1CC2(COC)CCC(OC)C34C5CC6C(OC)C(O)C(O)(C(CC23)C14)C5C6OC(=O)c1ccccc1 (stereo not shown)	NCI-H460	cell growth or viability, MTT			IC50	22.3 µM
Cc1cc(C)c(-n2c[n+](-c3c(C)cc(C)cc3C)c3c2-c2cccc4cccc-3c24)c(C)c1.[Cl][Pd-]([Cl])[CH2]C=Cc1ccccc1	NTERA2	cell growth or viability		72 h, 3D culture	IC50	31.5 µM
Cc1cc(Nc2nc(C[C@@]3(C(=O)O)CCN(Cc4cccc(Cl)c4F)[C@H](C)C3)cc(C)c2F)[nH]n1	NCI-H1650	cell growth or viability, ATP luminescence		5 days	IC50	0.365 µM
COCC12CCC(OC)C34C5CC6(O)C(OC)C(O)C(O)(C5C6OC(=O)c5ccccc5)C(C(OC)C13)C4N(C)C2 (stereo not shown)	HBE	cell growth or viability, MTT			IC50	30.7 µM
O=C1C(Cl)=C(Cl)C(=O)c2ccccc21	HuCC-A1	cell growth or viability, MTT			IC50	34.7 µM
Cc1cc(C)n(C(C(=O)OC(C)C)n2nc(C)cc2C)n1.F[P-](F)(F)(F)(F)F.[Cu+].c1ccc(P(c2ccccc2)c2ccccc2)cc1	LoVo	cell growth or viability, MTT		72 h	IC50	6.5 µM
C[C@H]1[C@H](OC(=O)CCC(=O)Oc2ccc(-c3cc(=S)ss3)cc2)O[C@@H]2O[C@@]3(C)CC[C@H]4[C@H](C)CC[C@@H]1[C@@]24OO3	L02	cell growth or viability, CCK-8		72 h	IC50	9.86 µM
C=C(CO)[C@H]1Cc2c(ccc3c2O[C@@H]2COc4cc(OC)c(OC)cc4[C@]2(O)C3=O)O1	HUVEC	cell growth or viability, MTT		72 h	IC50	> 50 µM
O=C(Cc1ccc2ccccc2c1)N[C@H](Cc1ccc(O)cc1)C(=O)N[C@H](Cc1ccccc1)C(=O)N[C@H](Cc1ccccc1)C(=O)N[C@H](Cc1ccc(OP(=O)(O)O)cc1)C(=O)O	T98G	cell growth or viability, MTT			IC50	301 µg/mL
C[C@H]1C(OCCCCCCCCCCC[P+](c2ccccc2)(c2ccccc2)c2ccccc2)O[C@@H]2O[C@@]3(C)CCC4[C@H](C)CCC1[C@]42OO3 (stereo partly shown)	J82	cell growth or viability, MTT		72 h	IC50	0.0874 µM
CN[C@](C)(C[18F])C(=O)O	SK-OV-3 tumour model		host not given, tumour	15 min, tumour-bearing	tracer uptake	8.5 %ID/g
CCCCCCCCC(=O)NCc1ccc(O)c(OC)c1	mouse mAb 1-F12	antibody binding, indirect competitive ELISA		together with: coating antigen 2-OVA	IC50	> 4 µg/mL
CC1(C)OC2C(COP(=O)(O)O)OC(n3cnc4c(=O)[nH]c(NC(=O)c5ccccc5)nc43)C2O1 (stereo not shown)	Vero	cell growth or viability			IC50	> 100 µM
CNC(=O)c1cc(Oc2ccc(NC(=O)c3cc(-c4cccc(OC(=O)CCC(=O)OC5OC6OC7(C)CCC8C(C)CCC(C5C)C68OO7)c4)ccn3)cc2)ccn1 (stereo not shown)	L02	cell growth or viability, MTT		72 h	IC50	44.1 µM
Cc1cc([C@H](NC(=O)c2cnccc2-c2ccc(C(F)(F)F)cc2)C(=O)N(C)C)cc(C(F)(F)F)c1	KHYG-1 with Ba/F3-MICA cells	NKG2D-mediated cell killing, inhibitor		6 h	IC50	0.2 ± 0.2 µM
CCN1CC2(COC)CCC(OC)C34C5CC6C(OC)CC(O)(C(CC23)C14)C5C6OC(C)=O (stereo not shown)	HBE	cell growth or viability, MTT			IC50	27.7 µM
C[C@@H]1CCC2[C@@H](C)[C@@H](OCCC[P+](c3ccccc3)(c3ccccc3)c3ccccc3)O[C@@H]3O[C@@]4(C)CCC1[C@@]23OO4 (stereo partly shown)	HUVEC	cell viability, MTT		72 h	IC50	0.434 ± 0.0206 µM
CC[C@H](C)[C@H](NC(=O)[C@@H](NC(=O)[C@H](CC(=O)O)NC(C)=O)[C@@H](C)O)C(=O)N[C@@H](CCCNC(=N)N)C(=O)N[C@@H](CC(C)C)C(=O)N[C@@H](CC(C)C)C(=O)N[C@@H](Cc1ccccc1)C(=O)N[C@@H](CCC(N)=O)C(=O)N[C@@H](CC(C)C)C(=O)N[C@@H](CCSC)C(=O)N[C@@H](CCCNC(=N)N)C(=O)N1CCC[C@H]1C(=O)N1CCC[C@H]1C(=O)N[C@@H](CC(N)=O)C(=O)N[C@@H](CCSC)C(=O)N[C@H](C(=O)N1CCC[C@H]1C(=O)N[C@@H](C)C(=O)N[C@H](C(=O)N[C@@H](CC(N)=O)C(=O)N[C@@H](C)C(N)=O)C(C)C)[C@@H](C)O		measured: HA-19 tetramer	tetramer+ CD4 T cells, PBMC, healthy adults, HLA-DRB1*0101	dose not given, CD62L−CD45RA+/− or CD62L+CD45RA−	antigen-experienced T cells	64.1%
CC(C)c1cccc(C(C)C)c1-n1c[n+](-c2c(C(C)C)cccc2C(C)C)c2c1-c1cccc3cccc-2c13.[Cl][Pd-]([Cl])[CH2]C=Cc1ccccc1	2008 spheroids	cell viability, APH	3D spheroids	72 h	IC50	31 ± 8 µM
CCN1CC2(COC)CCC(O)C34C5CC(C(CO)OC)CC5C(=O)C(C(OC)C23)C14 (stereo not shown)	NCI-H460	cell growth or viability, MTT			IC50	28.4 µM
OC[C@H]1[C@@H](O)[C@@H](O)CN1Cc1ccc(I)cc1	U2OS	cell growth or viability, MTS		72 h	IC50	169 µM
COc1cc(C(=O)NCCOCCOCCOCCNC(=O)c2ccc([18F])nc2)ccc1NC(=O)C1NC(CC(C)(C)C)C(C#N)(c2ccc(Cl)cc2F)C1c1cccc(Cl)c1F (stereo not shown)	SJSA-1 tumour model		host not given, spleen	1 h, tumour-bearing	tracer uptake	1.02 %ID/g

Compound	tested on	test	system	conditions	endpoint	result
C[C@H]1C(OCCCCCC[P+](c2ccccc2)(c2ccccc2)c2ccccc2)O[C@@H]2O[C@@]3(C)CCC4[C@H](C)CCC1[C@]42OO3 (stereo partly shown)	J82	cell growth or viability, MTT		72 h	IC50	0.17 µM
CN(C)CC1CCCCC1(O)c1cccc(O)c1 (stereo not shown)	Caco-2 TC7 monolayer			50 µM, 3 h, apical pH 6.8, basolateral pH 7.4	Papp A-to-B	5.8 ± 1 ×10⁻⁶ cm/s
[Ga+3].[O-]c1ccc(Br)c2cccnc12.[O-]c1ccc(Br)c2cccnc12.[O-]c1ccc(Br)c2cccnc12	L02	cell growth or viability, MTT		72 h	IC50	30 µM
CN(C)C(=O)[C@@H](NC(=O)c1cc(-c2ccnn2C)ccc1-c1ccc(C(F)(F)F)cc1)c1cccc(C(F)(F)F)c1	KHYG-1 with Ba/F3-MICA cells	NKG2D-mediated cell killing, inhibitor		6 h	IC50	0.4 ± 0.08 µM
CCN1CC2(COC)CCC(OC)C34C5CC6C(OC)CC(C5C6O)C(C(OC)C23)C14 (stereo not shown)	HBE	cell growth or viability, MTT			IC50	21.2 µM
COC(=O)CC[C@@H](NC(=O)[C@@H](Cc1ccc(OP(=O)(O)O)cc1)NC(=O)[C@@H](CC(C)C)NC(=O)[C@@H](Cc1ccccc1)NC(=O)[C@@H](Cc1ccccc1)NC(=O)Cc1ccc2ccccc2c1)C(=O)OC	OVSAHO	cell growth or viability			IC50	< 12.5 µM
CC[C@@]12CC[C@@H]3N(C)c4ccccc4[C@@]34CCN(C[C@H]3O[C@H]31)[C@@H]24	BV-2	cell growth or viability, MTT			IC50	> 100 µM
CCC(C)C1OC(=O)C(NC(=O)c2cccc(NC=O)c2O)C(C)OC(=O)C(C(C)CC)OC(=O)C(C)(C)C(O)C(Cc2ccccc2)OC1=O (stereo not shown)	HCT-8/T taxol-resistant	cell viability, CCK-8		72 h	IC50	1.04 ± 0.0178 µM
CC1(CCCO[C@H]2O[C@H](CO)[C@@H](O)[C@H](O)[C@H]2O)C(=O)[O][Pt][O]C1=O.N[C@@H]1CCCC[C@H]1N	MRC5	cell growth or viability, MTT			IC50	> 100 µM
Cc1ccc(-n2nc3c(=O)n(CCCC(=O)NCC(C)c4ccccc4)nc(C)c3c2C)cc1 (stereo not shown)	primary pancreatic cancer KRAS G12D	cell growth, CCK-8		72 h	IC50	> 100 µM
CNC(=O)c1cc(Oc2ccc(NC(=O)c3ccc(-c4cccc(OC(=O)CCC(=O)OC5OC6OC7(C)CCC8C(C)CCC(C5C)C68OO7)c4)cn3)cc2)ccn1 (stereo not shown)	L02	cell growth or viability, MTT		72 h	IC50	30.7 µM
CC1=C(C(=O)Nc2ccc(F)cc2)C(c2ccccc2Cl)NC(=S)N1 (stereo not shown)	PMA-differentiated THP-1	cell viability, MTT		24 h	IC50	791 ± 58.6 µg/mL
COCC12CN(C)C3C4C(OC)C1C3(C(OC)CC2O)C1CC2(O)C(O)C1C4(O)C(O)C2OC (stereo not shown)	NCI-H460	cell growth or viability, MTT			IC50	7.97 µM
CN(C)C(=O)[C@@H](NC(=O)c1cnccc1-c1ccc(C(F)(F)F)cc1)c1cc(Cl)cc(C(F)(F)F)c1	KHYG-1 with Ba/F3-MICA cells	NKG2D-mediated cell killing, inhibitor		6 h	IC50	0.2 ± 0.1 µM
C[C@H](NC(=O)[C@H](CCC(N)=O)NC(=O)[C@H](C)NC(=O)[C@H](CCCCN)NC(=O)[C@H](CCC(N)=O)NC(=O)[C@H](C)NC(=O)[C@H](CCCCN)NC(=O)[C@H](CCC(N)=O)NC(=O)[C@H](C)NC(=O)[C@H](CCC(N)=O)NC(=O)[C@H](CCCCN)NC(=O)[C@H](C)NC(=O)[C@H](CCC(N)=O)NC(=O)[C@H](CCCCN)NC(=O)[C@H](C)NC(=O)[C@H](CCC(N)=O)NC(=O)[C@H](C)NC(=O)[C@H](CCCCN)NC(=O)[C@H](CCC(N)=O)NC(=O)[C@H](C)NC(=O)[C@H](CCCCN)NC(=O)[C@H](CO)NC(=O)[C@H](Cc1ccc(O)cc1)NC(=O)CNC(=O)CNC(=O)CN)C(=O)N[C@@H](CCCCN)C(=O)N[C@@H](CCC(N)=O)C(=O)N[C@@H](C)C(=O)N[C@@H](CCCCN)C(=O)N[C@@H](CCC(N)=O)C(=O)O		binding, SPR two-state model	rVλ6Wil fibrils	300 nM, pH 7.4	ka1	480000 M⁻¹ s⁻¹
CC(C)C12OC1C1OC13C1(C)CCC4=C(COC4=O)C1CC1OC13C2OC(=O)CCCOC1OC(CO)C(O)C(O)C1O (stereo not shown)	DLD-1 GLUT1 knockout	cell growth		1% oxygen hypoxia	IC50	2.5 µM
F[P-](F)(F)(F)(F)F.OCP(CO)CO.OCP(CO)CO.OCP(CO)CO.OCP(CO)CO.[Cu+]	CCD-18Co	cell growth or viability, MTT		72 h	IC50	39 µM
C=CC12COC(=O)C(=C)C1C(O)C1C(=C)C(=O)OC1C2 (stereo not shown)	JIMT-1	cell growth or viability, MTT		72 h	IC50	2.2 µM
Cc1cc(C)c(-n2ccn(-c3c(C)cc(C)cc3C)c2=[Se])c(C)c1.[Cl][Au]	LoVo	cell growth or viability, MTT		72 h	IC50	1.7 µM
C[C@H]1C(OCCCCCCC[P+](c2ccccc2)(c2ccccc2)c2ccccc2)O[C@@H]2O[C@@]3(C)CCC4[C@H](C)CCC1[C@]42OO3 (stereo partly shown)	J82	cell growth or viability, MTT		72 h	IC50	0.115 µM
O=C(Nc1ccc(Br)cc1)c1cc(Br)cc(Br)c1O	NIH3T3	cell growth or viability, resazurin		72 h	IC50	11.5 µM
Oc1c(Cl)cc(Cl)cc1-c1[nH]c(Cl)c(Cl)c1Cl	MRC5	cell growth or viability, resazurin		24 h	IC50	0.15 µg/mL
CC(=O)OC[C@H]1O[C@@H](NC(=O)NC(=O)[C@@H](C)Cc2ccc(C(C)C)cc2)[C@H](OC(C)=O)[C@@H](OC(C)=O)[C@@H]1OC(C)=O	Vero	viral replication		range over three viruses	IC50	45 to 58 µM
CCOC12C(O)C(OC)C3(O)CC(C1C3OC(=O)c1ccccc1)C13C(OC)CCC4(COC)CN(CC)C1C2C(OC)C43 (stereo not shown)	HBE	cell growth or viability, MTT			IC50	50.1 µM

For quick reference, copied from above:
Compound	tested on	test	system	conditions	endpoint	result
Cc1cc([C@H](NC(=O)c2cnccc2-c2ccc(C(F)(F)F)cc2)C(=O)N(C)C)cc(C(F)(F)F)c1	KHYG-1 with Ba/F3-MICA cells	NKG2D-mediated cell killing, inhibitor		6 h	IC50	0.2 ± 0.2 µM
CCN1CC2(COC)CCC(OC)C34C5CC6C(OC)CC(O)(C(CC23)C14)C5C6OC(C)=O (stereo not shown)	HBE	cell growth or viability, MTT			IC50	27.7 µM
CCN1CC2(COC)CCC(OC)C34C5CC6C(OC)CC(C5C6O)C(C(OC)C23)C14 (stereo not shown)	HBE	cell growth or viability, MTT			IC50	21.2 µM
